Published values pooled from the literature.
Compare with care: the assays were run in different laboratories. Values joined by “and” are separate records of one study, mostly repeats; a detail may differ. ± gives the spread as reported.
lecA: PA-I galactophilic lectin (lecA, Pseudomonas aeruginosa, UniProt Q05097)
UniProt Q05097, sequence (whole entry, looked up): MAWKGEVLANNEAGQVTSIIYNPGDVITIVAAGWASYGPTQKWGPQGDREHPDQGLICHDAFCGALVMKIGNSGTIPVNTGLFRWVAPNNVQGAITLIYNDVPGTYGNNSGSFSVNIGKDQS
Histone chaperone ASF1A: Histone chaperone ASF1A (Homo sapiens, UniProt Q9Y294)
UniProt Q9Y294, sequence (whole entry, looked up): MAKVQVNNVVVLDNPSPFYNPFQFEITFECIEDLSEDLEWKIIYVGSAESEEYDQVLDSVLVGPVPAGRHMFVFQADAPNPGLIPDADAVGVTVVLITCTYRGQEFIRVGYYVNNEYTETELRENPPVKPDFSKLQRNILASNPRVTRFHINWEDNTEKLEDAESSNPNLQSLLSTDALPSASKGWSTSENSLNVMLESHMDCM
Complement C3: Complement C3 (Homo sapiens, UniProt P01024)
UniProt P01024, sequence (whole entry, looked up): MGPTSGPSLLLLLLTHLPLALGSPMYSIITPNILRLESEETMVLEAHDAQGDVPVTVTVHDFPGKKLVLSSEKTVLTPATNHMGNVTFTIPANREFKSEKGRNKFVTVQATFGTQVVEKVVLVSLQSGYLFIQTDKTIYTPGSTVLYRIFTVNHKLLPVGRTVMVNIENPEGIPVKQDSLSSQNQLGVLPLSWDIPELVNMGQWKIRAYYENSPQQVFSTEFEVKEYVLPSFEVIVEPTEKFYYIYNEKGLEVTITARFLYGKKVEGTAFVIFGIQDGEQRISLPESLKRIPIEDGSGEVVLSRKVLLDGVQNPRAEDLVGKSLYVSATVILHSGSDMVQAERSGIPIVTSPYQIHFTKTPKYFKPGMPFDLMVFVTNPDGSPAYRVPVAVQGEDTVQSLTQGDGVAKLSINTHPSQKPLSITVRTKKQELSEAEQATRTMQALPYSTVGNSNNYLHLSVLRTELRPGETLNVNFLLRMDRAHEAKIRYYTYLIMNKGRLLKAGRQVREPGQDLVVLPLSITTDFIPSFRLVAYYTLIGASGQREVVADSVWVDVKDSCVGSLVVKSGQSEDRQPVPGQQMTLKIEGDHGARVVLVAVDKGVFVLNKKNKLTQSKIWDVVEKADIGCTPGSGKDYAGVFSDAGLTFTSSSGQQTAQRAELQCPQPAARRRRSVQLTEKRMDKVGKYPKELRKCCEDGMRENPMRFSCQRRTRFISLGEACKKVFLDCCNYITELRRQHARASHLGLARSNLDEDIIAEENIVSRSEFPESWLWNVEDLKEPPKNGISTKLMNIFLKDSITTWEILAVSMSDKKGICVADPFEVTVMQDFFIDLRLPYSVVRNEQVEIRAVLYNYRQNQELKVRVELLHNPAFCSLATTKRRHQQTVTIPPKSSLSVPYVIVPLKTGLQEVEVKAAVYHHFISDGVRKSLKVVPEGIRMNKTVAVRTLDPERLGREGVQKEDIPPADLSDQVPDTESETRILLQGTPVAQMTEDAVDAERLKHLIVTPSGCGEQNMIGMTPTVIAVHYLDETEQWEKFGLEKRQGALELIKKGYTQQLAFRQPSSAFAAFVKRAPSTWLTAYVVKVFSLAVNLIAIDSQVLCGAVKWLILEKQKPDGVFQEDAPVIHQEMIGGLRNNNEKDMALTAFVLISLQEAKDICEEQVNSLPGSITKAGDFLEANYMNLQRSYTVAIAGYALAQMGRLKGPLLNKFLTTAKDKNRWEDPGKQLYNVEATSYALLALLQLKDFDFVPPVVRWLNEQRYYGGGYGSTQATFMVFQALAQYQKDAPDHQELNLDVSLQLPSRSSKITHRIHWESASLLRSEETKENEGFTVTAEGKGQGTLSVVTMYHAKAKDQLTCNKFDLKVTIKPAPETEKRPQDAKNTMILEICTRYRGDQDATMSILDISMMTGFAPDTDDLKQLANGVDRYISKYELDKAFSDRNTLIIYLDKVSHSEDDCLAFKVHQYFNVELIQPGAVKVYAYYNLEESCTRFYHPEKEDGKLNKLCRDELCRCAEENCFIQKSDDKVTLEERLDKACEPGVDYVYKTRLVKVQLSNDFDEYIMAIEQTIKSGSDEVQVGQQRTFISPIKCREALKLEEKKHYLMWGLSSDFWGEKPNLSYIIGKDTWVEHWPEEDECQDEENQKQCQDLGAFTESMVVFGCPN
GRB2 N-terminal SH3 domain: Growth factor receptor-bound protein 2, N-terminal SH3 domain (GRB2, Homo sapiens, UniProt P62993)
UniProt P62993, sequence (whole entry, looked up): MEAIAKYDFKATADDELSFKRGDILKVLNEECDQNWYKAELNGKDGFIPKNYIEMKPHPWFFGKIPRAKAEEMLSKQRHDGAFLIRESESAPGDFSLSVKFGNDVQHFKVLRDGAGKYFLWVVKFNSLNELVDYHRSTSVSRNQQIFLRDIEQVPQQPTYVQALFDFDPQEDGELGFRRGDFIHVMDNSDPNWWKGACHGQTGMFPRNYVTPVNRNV
UniProt Q9NXA8, sequence (whole entry, looked up): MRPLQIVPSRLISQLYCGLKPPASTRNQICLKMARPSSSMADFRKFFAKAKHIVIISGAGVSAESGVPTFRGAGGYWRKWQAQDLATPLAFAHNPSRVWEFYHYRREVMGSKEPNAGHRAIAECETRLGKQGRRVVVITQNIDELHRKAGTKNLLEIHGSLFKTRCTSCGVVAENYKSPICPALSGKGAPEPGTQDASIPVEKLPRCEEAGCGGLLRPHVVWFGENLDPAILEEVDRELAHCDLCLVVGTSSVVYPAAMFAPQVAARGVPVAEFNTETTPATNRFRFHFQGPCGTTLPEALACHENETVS
UniProt Q9ULV8, sequence (whole entry, looked up): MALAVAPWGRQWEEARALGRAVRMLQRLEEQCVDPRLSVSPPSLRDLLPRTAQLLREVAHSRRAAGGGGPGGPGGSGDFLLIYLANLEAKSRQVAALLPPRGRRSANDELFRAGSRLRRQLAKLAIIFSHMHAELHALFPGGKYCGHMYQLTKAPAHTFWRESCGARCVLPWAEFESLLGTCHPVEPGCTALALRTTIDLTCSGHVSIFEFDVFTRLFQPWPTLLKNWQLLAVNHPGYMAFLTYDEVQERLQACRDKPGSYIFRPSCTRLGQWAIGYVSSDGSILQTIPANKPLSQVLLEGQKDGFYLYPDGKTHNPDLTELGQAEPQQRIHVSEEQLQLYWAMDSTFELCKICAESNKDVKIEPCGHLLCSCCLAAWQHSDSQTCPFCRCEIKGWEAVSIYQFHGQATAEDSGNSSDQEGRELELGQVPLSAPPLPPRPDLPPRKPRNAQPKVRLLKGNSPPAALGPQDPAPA
UniProt Q8N884, sequence (whole entry, looked up): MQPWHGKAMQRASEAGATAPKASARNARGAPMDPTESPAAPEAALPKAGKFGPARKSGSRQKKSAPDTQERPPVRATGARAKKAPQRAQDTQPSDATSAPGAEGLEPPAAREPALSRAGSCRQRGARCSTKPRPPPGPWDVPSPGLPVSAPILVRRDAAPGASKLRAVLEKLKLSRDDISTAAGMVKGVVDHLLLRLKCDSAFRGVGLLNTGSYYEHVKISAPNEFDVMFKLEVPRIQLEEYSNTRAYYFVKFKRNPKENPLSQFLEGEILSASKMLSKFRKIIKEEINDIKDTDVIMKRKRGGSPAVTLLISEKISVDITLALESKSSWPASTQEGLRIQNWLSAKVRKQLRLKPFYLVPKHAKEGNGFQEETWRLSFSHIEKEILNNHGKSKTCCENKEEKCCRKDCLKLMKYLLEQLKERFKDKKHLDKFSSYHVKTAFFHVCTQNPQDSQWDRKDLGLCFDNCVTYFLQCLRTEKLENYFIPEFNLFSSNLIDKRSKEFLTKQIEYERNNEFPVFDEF
UniProt Q9Y468, sequence (whole entry, looked up): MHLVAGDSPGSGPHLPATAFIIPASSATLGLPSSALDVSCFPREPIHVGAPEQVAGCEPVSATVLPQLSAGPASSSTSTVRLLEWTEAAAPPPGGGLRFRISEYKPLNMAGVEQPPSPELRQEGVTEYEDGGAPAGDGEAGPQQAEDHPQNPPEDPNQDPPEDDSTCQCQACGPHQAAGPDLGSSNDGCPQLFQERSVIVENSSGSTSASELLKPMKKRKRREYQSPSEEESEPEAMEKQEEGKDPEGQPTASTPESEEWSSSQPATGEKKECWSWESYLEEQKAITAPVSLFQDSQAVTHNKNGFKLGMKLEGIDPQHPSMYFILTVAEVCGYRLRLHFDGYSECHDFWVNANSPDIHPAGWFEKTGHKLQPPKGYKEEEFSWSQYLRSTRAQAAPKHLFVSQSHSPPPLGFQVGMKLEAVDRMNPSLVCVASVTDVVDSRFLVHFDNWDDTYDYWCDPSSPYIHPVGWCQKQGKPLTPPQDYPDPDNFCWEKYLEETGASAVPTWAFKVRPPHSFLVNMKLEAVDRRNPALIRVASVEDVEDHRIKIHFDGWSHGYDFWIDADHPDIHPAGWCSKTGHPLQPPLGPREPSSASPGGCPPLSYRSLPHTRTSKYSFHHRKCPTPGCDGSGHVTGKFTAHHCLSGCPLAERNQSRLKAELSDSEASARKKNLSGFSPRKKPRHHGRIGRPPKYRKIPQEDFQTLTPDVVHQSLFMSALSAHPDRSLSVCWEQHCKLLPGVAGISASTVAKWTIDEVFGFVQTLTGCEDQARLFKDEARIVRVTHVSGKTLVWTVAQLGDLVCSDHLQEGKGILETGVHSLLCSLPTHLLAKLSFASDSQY
UniProt Q68D91, sequence (whole entry, looked up): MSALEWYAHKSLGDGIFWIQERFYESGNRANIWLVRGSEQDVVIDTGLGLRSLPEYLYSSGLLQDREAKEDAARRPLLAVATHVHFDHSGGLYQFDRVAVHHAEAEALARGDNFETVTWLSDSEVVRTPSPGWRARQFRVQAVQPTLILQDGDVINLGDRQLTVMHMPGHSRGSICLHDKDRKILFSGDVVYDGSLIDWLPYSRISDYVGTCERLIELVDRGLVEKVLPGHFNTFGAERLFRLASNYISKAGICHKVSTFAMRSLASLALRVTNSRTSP

SMILES = O=C(COCc1ccccc1)N[C@@H](Cc1cn(CCNC(=O)c2ccc(S[C@@H]3O[C@H](CO)[C@H](O)[C@H](O)[C@H]3O)cc2)nn1)C(=O)NCCO; target = lecA; assay = binding, SPR; Kd = 6 µM
SMILES = COc1cc(-c2nc3ccc(C(=O)NCCCN(C)C)cc3n2C2CCC2)cc(OC)c1OC; target = ACVRL1 (Homo sapiens, UniProt P37023); assay = binding, TR-FRET; Kd = 0.0039 µM
SMILES = CC[C@H](C)[C@H](NC(=O)[C@H](CCCNC(=N)N)NC(=O)NC[C@H](CCC(N)=O)NC(=O)NC[C@@H](NC(=O)NC[C@H](CCCNC(=N)N)NC(=O)NC[C@H](Cc1ccc2ccccc2c1)NC(=O)[C@H](CCCCN)NC(=O)[C@H](CCC(=O)O)NC(C)=O)C(c1ccccc1)c1ccccc1)C(=O)N[C@@H](C)C(N)=O; target = Histone chaperone ASF1A; assay = binding, ITC; setting = pH 7.5; Kd = 7.9 µM
SMILES = O=C(NO)c1cnc(NC2(c3cccc(F)c3)CCCCC2)nc1; target = MBLAC2 (Homo sapiens, UniProt Q68D91); assay = binding, competitor, chemoproteomic pulldown; system = SW-620 MV4-11 lysate; setting = 1 h, 30 °C; Kd = 0.794 µM
SMILES = CC(=O)N[C@@H](Cc1c[nH]c2ccccc12)C(=O)N[C@H]1CSSC[C@@H](C(=O)N[C@H](C(N)=O)[C@@H](C)O)NC(=O)[C@H](CCCNC(=N)N)NC(=O)[C@H](Cc2c[nH]cn2)NC(=O)[C@H](C)NC(=O)CNC(=O)[C@H](Cc2c[nH]c3ccccc23)NC(=O)[C@H](CC(=O)O)NC(=O)[C@H](CCC(N)=O)NC(=O)[C@H](Cc2c[nH]c3ccccc23)NC(=O)[C@H](C(C)C)NC1=O; target = Complement C3; assay = surface plasmon resonance; setting = 25 °C, 1:1 binding model; Kd = 0.52 µM
SMILES = CCOC(=O)C1=CN([C@@H]2O[C@H](CO)[C@@H](O)[C@H]2O)C=CC1; target = SIRT5 (Homo sapiens, UniProt Q9NXA8); assay = isothermal titration calorimetry; setting = together with: NAD+; Kd = 6.6 ± 1.5 µM
SMILES = CC[C@H](C)[C@H](NC(C)=O)C(=O)N[C@H]1CSSC[C@@H](C(=O)N[C@H](C(N)=O)[C@@H](C)O)NC(=O)[C@H](CCCNC(=N)N)NC(=O)[C@H](Cc2c[nH]cn2)NC(=O)[C@@H]2CCCN2C(=O)CNC(=O)[C@H](Cc2c[nH]c3ccccc23)NC(=O)[C@H](CC(=O)O)NC(=O)[C@H](CCC(N)=O)NC(=O)[C@H](Cc2cn(C)c3ccccc23)NC(=O)[C@H](C(C)C)NC1=O; target = Complement C3; assay = binding, ITC; setting = pH 7.4; Kd = 0.043 µM
SMILES = OC[C@H]1O[C@@H](Oc2ccc(-c3cn([C@H]4[C@H](O)[C@@H](O)[C@H](c5cn([C@H]6[C@H](O)[C@@H](O)[C@H](n7cc(-c8ccc(O[C@@H]9O[C@H](CO)[C@H](O)[C@H](O)[C@H]9O)cc8)nn7)O[C@@H]6CO)nn5)O[C@@H]4CO)nn3)cc2)[C@H](O)[C@@H](O)[C@H]1O; target = lecA; assay = binding, ITC; setting = pH 7.5; Kd = 0.087 µM
SMILES = CC(C)[C@H](NC(=O)[C@H](CCC(=O)O)NC(=O)[C@H](Cc1ccc(O)cc1)NC(=O)CNC(=O)[C@H](CO)NC(=O)[C@H](CC(=O)O)NC(=O)[C@H](Cc1c[nH]cn1)NC(=O)[C@H](CCCNC(=N)N)NC(=O)[C@H](Cc1ccccc1)NC(=O)[C@H](CCC(=O)O)NC(=O)[C@H](C)NC(=O)[C@@H](N)CC(=O)O)C(=O)N[C@@H](Cc1c[nH]cn1)C(=O)N[C@@H](Cc1c[nH]cn1)C(=O)N[C@@H](CCC(N)=O)C(=O)N[C@@H](CCCCN)C(=O)O; target = Polyubiquitin-B (UBB, Homo sapiens, UniProt P0CG47); assay = ubiquitin binding, microscale thermophoresis; setting = 25 °C; Kd = 340 µM
SMILES = CC(C)(C)NCCCNC(=O)c1cccc(C(F)(F)F)c1; target = TP53-binding protein 1, tandem tudor domain (Homo sapiens, UniProt Q12888); assay = isothermal titration calorimetry; Kd = 10 ± 1 µM
SMILES = O=C1c2sc(-c3ccc(N4CCC(CO)CC4)nc3F)nc2CCN1c1cccnc1; target = TAR DNA-binding protein 43, aggregated (TARDBP, Homo sapiens, UniProt Q13148); assay = surface plasmon resonance; system = brain-derived aggregates; Kd = 0.08 ± 0.026 µM
SMILES = Cc1ccc2c(c1Br)C(O)(CC(=O)c1ccc3c(c1)OCO3)C(=O)N2 (stereo not drawn); target = Uncharacterized protein (Trypanosoma brucei brucei, UniProt Q386Q8); assay = binding, surface plasmon resonance; system = Trypanosoma brucei; setting = together with: GlcNAc-1-P 100 µM; Kd = 2.35 ± 0.03 µM
SMILES = Cn1ccc(-c2cc(Cl)c(Cl)c3[nH]c4c(c23)CN(C(=O)CO)CC4)n1; target = CGAS (Homo sapiens, UniProt Q8N884); assay = binding, surface plasmon resonance; setting = together with: dsDNA and ATP; Kd = 0.141 ± 0.08 µM
SMILES = Nc1ncnc2c1ncn2[C@@H]1O[C@H](CO)[C@@H](O[C@H]2O[C@H](CO)[C@@H](OP(=O)(O)O)[C@H](OP(=O)(O)O)[C@H]2O)[C@H]1O; target = Inositol 1,4,5-trisphosphate-gated calcium channel ITPR1, N-terminal region (Itpr1, Rattus norvegicus, UniProt P29994, del318-332/R504Q); assay = [3H]IP3 competition binding; setting = N-terminal fragment R504Q; Kd = 0.345 µM
SMILES = CC(C)[C@@H]1NC(=O)[C@@H](NC(=O)[C@@H](N)Cc2c[nH]c3ccccc23)CSSC[C@@H](C(=O)N[C@@H](Cc2c[nH]c3ccccc23)C(N)=O)NC(=O)[C@H](CCCNC(=N)N)NC(=O)[C@H](CC(N)=O)NC(=O)[C@H]([C@@H](C)O)NC(=O)CNC(=O)[C@H](Cc2c[nH]c3ccccc23)NC(=O)[C@H](CC(=O)O)NC(=O)[C@H](CCC(N)=O)NC(=O)[C@H](Cc2c[nH]c3ccccc23)NC1=O; target = Complement C3; assay = surface plasmon resonance; setting = 25 °C, 1:1 binding model; Kd = 0.51 µM
SMILES = NC(=O)CN1C(=O)C(O)(CC(=O)c2cccc(N)c2)c2ccccc21 (stereo not drawn); target = uncharacterized protein (Leishmania donovani, UniProt A0A3Q8IA09); assay = competitive ITC; setting = together with: glutamate 60 µM; Kd = 2 µM
SMILES = CC(C)=CCC[C@](C)(O)[C@H]1CC[C@]2(C)[C@@H]1[C@H](O)C[C@@H]1[C@@]3(C)CC[C@H](O)C(C)(C)[C@@H]3CC[C@]12C; target = YWHAZ (Homo sapiens, UniProt P63104); assay = isothermal titration calorimetry; Kd = 3.1 ± 2e-07 µM
SMILES = CCCC[C@@H](CNC(=O)N[C@@H](CCC(N)=O)CNC(=O)N[C@@H](CCCNC(=N)N)C(=O)N[C@H](C(=O)N[C@@H](C)C(N)=O)[C@@H](C)CC)NC(=O)NC[C@H](CCCNC(=N)N)NC(=O)NC[C@H](Cc1ccc2ccccc2c1)NC(=O)[C@H](CCCCN)NC(=O)[C@H](CCC(=O)O)NC(C)=O; target = Histone chaperone ASF1A; assay = binding, ITC; setting = pH 7.5; Kd = 4.3 µM
SMILES = CNCCCC[C@H](NC(=O)[C@H](CCCNC(=N)N)NC(=O)[C@H](Cc1c[nH]cn1)NC(=O)[C@@H](N)CCCNC(=N)N)C(=O)N[C@H](C(=O)N[C@@H](CC(C)C)C(=O)N[C@@H](CCCNC(=N)N)C(=O)N[C@@H](CC(=O)O)C(=O)N[C@@H](CC(N)=O)C(=O)O)C(C)C; target = Lethal(3)malignant brain tumor-like protein 1 (Homo sapiens, UniProt Q9Y468); Kd = 24 ± 1 µM
SMILES = O=C(COCCc1ccccc1)N[C@@H](Cc1cn(CCNC(=O)c2ccc(S[C@@H]3O[C@H](CO)[C@H](O)[C@H](O)[C@H]3O)cc2)nn1)C(=O)NCCO; target = lecA; assay = binding, SPR; Kd = 6.9 µM
SMILES = C=CCO[C@@H]1C[C@@H](C(=O)N[C@@H](CCCNC(=N)N)C(=O)N[C@@H](CCCNC(=N)N)C(=O)N[C@@H](CCCNC(=N)N)C(N)=O)N(C(=O)[C@@H]2CCCN2C(=O)[C@@H](NC(=O)[C@@H]2C[C@H](OCC=C)CN2C(=O)[C@@H]2CCCN2C(=O)[C@@H]2CCCN2C(=O)[C@@H](NC(C)=O)C(C)C)C(C)C)C1; target = GRB2 N-terminal SH3 domain; assay = binding, tryptophan fluorescence; system = PBS; setting = 21 °C; Kd = 12.6 ± 0.98 µM
SMILES = CC1=CC(C)(C)Nc2c(C(=O)O)cccc21; target = E3 ubiquitin-protein ligase CBL-C (Homo sapiens, UniProt Q9ULV8); assay = binding, NMR; Kd = 620 µM
SMILES = C[C@H](N)C(=O)N[C@@H](CCCNC(=N)N)C(=O)N[C@H](C(=O)N[C@@H](CCCC[N+](C)(C)C)C(=O)N[C@@H](CCC(N)=O)C(=O)N[C@H](C(=O)N[C@@H](C)C(=O)N[C@@H](CCCNC(=N)N)C(=O)N[C@@H](CCCCN)C(=O)N[C@@H](CO)C(=O)N[C@H](C(=O)NCC(=O)NCC(=O)N[C@@H](CCCCN)C(=O)N[C@@H](C)C(=O)O)[C@@H](C)O)[C@@H](C)O)[C@@H](C)O; target = Histone-lysine N-methyltransferase 2A, PHD3-bromodomain cassette (KMT2A, Homo sapiens, UniProt Q03164, del1666-1702); assay = binding, isothermal titration calorimetry; setting = pH 7.5, 25 °C, coexpressed protein complex, together with: H3K4me peptide; Kd = 4.3 µM
SMILES = CC(=O)N[C@H](C(=O)N1CCC[C@H]1C(=O)N1CCC[C@H]1C(=O)N1C[C@@H]2C[C@H]1C(=O)N[C@@H](C(C)C)C(=O)N1CCC[C@H]1C(=O)N1C[C@@H](C[C@H]1C(=O)N[C@@H](CCCNC(=N)N)C(=O)N[C@@H](CCCNC(=N)N)C(=O)N[C@@H](CCCNC(=N)N)C(N)=O)OCCCC=CCO2)C(C)C; target = GRB2 N-terminal SH3 domain; assay = binding, tryptophan fluorescence; system = PBS; setting = 21 °C; Kd = 18.6 µM and ~18 µM
SMILES = Cc1cc(C)cc(COc2cc3c(cc2OCc2cc(C)cc(C)c2)[C@@H]2C[C@](O)(Cc4cn(Cc5ccc(F)cc5)nn4)C[C@H](C)N2CC3)c1 (single isomer, unassigned); target = Rab GDP dissociation inhibitor beta (Homo sapiens, UniProt P50395); assay = binding, BLI; Kd = 36 µM
SMILES = O=C(COc1ccccc1)N[C@@H](Cc1cn(CCNC(=O)c2ccc(S[C@@H]3O[C@H](CO)[C@H](O)[C@H](O)[C@H]3O)cc2)nn1)C(=O)NCCO; target = lecA; assay = binding, SPR; Kd = 10.3 µM
SMILES = O=c1c(Br)c2oc3c(CN(Cc4ccccn4)Cc4cnccn4)c(O)ccc3nc-2c2ccccc12; target = zinc ion; assay = fluorescence titration; setting = pH 7.0, 25 °C; Kd = 0.00069 µM

Excerpt of the above:
SMILES = CC(C)[C@@H]1NC(=O)[C@@H](NC(=O)[C@@H](N)Cc2c[nH]c3ccccc23)CSSC[C@@H](C(=O)N[C@@H](Cc2c[nH]c3ccccc23)C(N)=O)NC(=O)[C@H](CCCNC(=N)N)NC(=O)[C@H](CC(N)=O)NC(=O)[C@H]([C@@H](C)O)NC(=O)CNC(=O)[C@H](Cc2c[nH]c3ccccc23)NC(=O)[C@H](CC(=O)O)NC(=O)[C@H](CCC(N)=O)NC(=O)[C@H](Cc2c[nH]c3ccccc23)NC1=O; target = Complement C3; assay = surface plasmon resonance; setting = 25 °C, 1:1 binding model; Kd = 0.51 µM
SMILES = C[C@H](N)C(=O)N[C@@H](CCCNC(=N)N)C(=O)N[C@H](C(=O)N[C@@H](CCCC[N+](C)(C)C)C(=O)N[C@@H](CCC(N)=O)C(=O)N[C@H](C(=O)N[C@@H](C)C(=O)N[C@@H](CCCNC(=N)N)C(=O)N[C@@H](CCCCN)C(=O)N[C@@H](CO)C(=O)N[C@H](C(=O)NCC(=O)NCC(=O)N[C@@H](CCCCN)C(=O)N[C@@H](C)C(=O)O)[C@@H](C)O)[C@@H](C)O)[C@@H](C)O; target = Histone-lysine N-methyltransferase 2A, PHD3-bromodomain cassette (KMT2A, Homo sapiens, UniProt Q03164, del1666-1702); assay = binding, isothermal titration calorimetry; setting = pH 7.5, 25 °C, coexpressed protein complex, together with: H3K4me peptide; Kd = 4.3 µM
SMILES = CC(C)[C@H](NC(=O)[C@H](CCC(=O)O)NC(=O)[C@H](Cc1ccc(O)cc1)NC(=O)CNC(=O)[C@H](CO)NC(=O)[C@H](CC(=O)O)NC(=O)[C@H](Cc1c[nH]cn1)NC(=O)[C@H](CCCNC(=N)N)NC(=O)[C@H](Cc1ccccc1)NC(=O)[C@H](CCC(=O)O)NC(=O)[C@H](C)NC(=O)[C@@H](N)CC(=O)O)C(=O)N[C@@H](Cc1c[nH]cn1)C(=O)N[C@@H](Cc1c[nH]cn1)C(=O)N[C@@H](CCC(N)=O)C(=O)N[C@@H](CCCCN)C(=O)O; target = Polyubiquitin-B (UBB, Homo sapiens, UniProt P0CG47); assay = ubiquitin binding, microscale thermophoresis; setting = 25 °C; Kd = 340 µM
